Experimental data from different studies.
A part holds a random share of what one study measured.

Set 1 — technique: protein binding microarray; molecule type: double-stranded DNA, one strand shown; medium: in vitro; tested at: not given; reference: not given; reading: higher = stronger binding
Target: Histone acetyltransferase KAT6A, both winged helices, GST fusion (KAT6A, Homo sapiens, UniProt Q92794, residues 1-181)
Setting: 8-mer, flanks averaged, mean of 2 arrays, mostly near background
Target sequence (chain): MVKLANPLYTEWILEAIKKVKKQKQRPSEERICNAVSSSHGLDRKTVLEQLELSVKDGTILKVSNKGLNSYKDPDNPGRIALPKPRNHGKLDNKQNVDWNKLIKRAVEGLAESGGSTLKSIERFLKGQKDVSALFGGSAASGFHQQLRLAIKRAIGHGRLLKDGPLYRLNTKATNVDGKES
Sequence	E-score
ACAGGGTC	-0.0365
ATTAGCCA	-0.155
CCTGTCAG	-0.0542
CGGGTGGC	0.128
CATGCGAG	0.0131
CGAGCTCA	0.126

Set 2 — technique: universal PBM; molecule type: double-stranded DNA, one strand shown; medium: in vitro; tested at: not given; reading: higher = stronger binding
Target: Sal-like protein 4, full length isoform B (SALL4, Homo sapiens, UniProt Q9UJQ4-2, residues 1-616)
Setting: 8-mer, flanks averaged, mean of replicates
Residues (chain): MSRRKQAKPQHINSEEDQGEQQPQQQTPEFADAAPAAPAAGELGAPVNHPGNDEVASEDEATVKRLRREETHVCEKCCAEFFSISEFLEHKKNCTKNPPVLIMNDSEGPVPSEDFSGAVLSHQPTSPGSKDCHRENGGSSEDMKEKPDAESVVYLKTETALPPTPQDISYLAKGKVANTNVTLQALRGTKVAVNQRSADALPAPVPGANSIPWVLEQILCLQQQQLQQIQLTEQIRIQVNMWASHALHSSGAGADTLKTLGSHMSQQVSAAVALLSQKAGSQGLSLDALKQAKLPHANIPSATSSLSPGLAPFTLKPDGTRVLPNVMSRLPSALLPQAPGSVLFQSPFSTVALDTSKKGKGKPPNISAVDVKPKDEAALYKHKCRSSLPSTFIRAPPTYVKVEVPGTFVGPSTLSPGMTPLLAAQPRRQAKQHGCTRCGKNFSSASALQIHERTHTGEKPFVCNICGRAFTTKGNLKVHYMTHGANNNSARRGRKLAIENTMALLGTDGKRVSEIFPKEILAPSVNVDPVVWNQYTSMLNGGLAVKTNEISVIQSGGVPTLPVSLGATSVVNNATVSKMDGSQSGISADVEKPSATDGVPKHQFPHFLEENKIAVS
Sequence	E-score
ACAAACAC	0.0886
ACTACCCA	0.0356
CTACTCTC	-0.0189

Further values, each from its own experiment
HCM1 DNA-binding domain: Forkhead transcription factor HCM1, DNA-binding domain (HCM1, Saccharomyces cerevisiae, UniProt P25364, residues 41-213)
UniProt P25364, sequence (41-213, looked up): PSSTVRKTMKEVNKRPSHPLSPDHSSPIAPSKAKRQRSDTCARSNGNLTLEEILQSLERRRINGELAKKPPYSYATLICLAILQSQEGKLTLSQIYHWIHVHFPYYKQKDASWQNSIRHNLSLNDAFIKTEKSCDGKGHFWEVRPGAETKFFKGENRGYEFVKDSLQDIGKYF
Substance	target	test	system	conditions	scale	measurement	result
GTACACA	HCM1 DNA-binding domain	SELEX-seq	double-stranded DNA, one strand shown, in vitro	not given, 7-bp core, flanks averaged	reference: best-binding core, lower = stronger binding	relative binding free energy	0.644 ddG/RT
PhoQ, residues 284 288 289 292 302 303 SSTMSV	PhoP, residues 12 14 15 18 19 NIMAP (Escherichia coli, UniProt P23836)	Sort-seq, refers to: YFP reporter	E. coli	PhoQ-PhoP variant library, with: 10 µM Mg2+	reference: high Mg2+ state, higher = stronger signaling	fold induction	0.714
ACAAACA	HCM1 DNA-binding domain	SELEX-seq	double-stranded DNA, one strand shown, in vitro	not given, 7-bp core, flanks averaged	reference: best-binding core, lower = stronger binding	relative binding free energy	0.761 ddG/RT

Excerpt of the above (set 2):
Sequence	E-score
ACTACCCA	0.0356
